Assay results pooled from the literature.
Every numbered part comes from another study and shows a few of its results, in no order.
Chain of UniProt Q9C098 (whole entry, looked up): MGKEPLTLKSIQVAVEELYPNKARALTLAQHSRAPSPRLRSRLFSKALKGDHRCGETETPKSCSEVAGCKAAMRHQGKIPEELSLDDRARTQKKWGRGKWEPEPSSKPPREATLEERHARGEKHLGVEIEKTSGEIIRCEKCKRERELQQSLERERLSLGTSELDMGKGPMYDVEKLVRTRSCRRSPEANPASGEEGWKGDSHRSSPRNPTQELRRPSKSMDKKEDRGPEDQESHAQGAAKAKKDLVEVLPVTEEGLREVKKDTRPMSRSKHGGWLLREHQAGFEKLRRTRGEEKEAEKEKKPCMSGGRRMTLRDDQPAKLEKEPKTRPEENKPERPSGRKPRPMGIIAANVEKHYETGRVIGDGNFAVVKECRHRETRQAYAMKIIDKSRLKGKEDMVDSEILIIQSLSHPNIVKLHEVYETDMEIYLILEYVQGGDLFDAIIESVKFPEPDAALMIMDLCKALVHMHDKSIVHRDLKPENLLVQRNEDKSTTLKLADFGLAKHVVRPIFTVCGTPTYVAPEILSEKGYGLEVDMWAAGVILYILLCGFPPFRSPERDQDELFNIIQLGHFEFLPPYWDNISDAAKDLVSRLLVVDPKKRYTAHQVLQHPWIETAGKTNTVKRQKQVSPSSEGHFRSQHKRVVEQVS
Chain of UniProt Q6P2M8 (whole entry, looked up): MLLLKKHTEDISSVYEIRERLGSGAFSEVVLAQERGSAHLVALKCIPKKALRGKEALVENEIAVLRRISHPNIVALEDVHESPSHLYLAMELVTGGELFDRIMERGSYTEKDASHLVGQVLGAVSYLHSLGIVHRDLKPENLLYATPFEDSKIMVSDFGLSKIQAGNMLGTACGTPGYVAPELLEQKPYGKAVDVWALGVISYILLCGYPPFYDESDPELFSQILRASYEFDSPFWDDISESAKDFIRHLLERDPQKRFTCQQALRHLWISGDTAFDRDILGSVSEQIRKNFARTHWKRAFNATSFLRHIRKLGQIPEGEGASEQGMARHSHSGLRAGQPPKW
Chain of UniProt Q9NY57 (whole entry, looked up): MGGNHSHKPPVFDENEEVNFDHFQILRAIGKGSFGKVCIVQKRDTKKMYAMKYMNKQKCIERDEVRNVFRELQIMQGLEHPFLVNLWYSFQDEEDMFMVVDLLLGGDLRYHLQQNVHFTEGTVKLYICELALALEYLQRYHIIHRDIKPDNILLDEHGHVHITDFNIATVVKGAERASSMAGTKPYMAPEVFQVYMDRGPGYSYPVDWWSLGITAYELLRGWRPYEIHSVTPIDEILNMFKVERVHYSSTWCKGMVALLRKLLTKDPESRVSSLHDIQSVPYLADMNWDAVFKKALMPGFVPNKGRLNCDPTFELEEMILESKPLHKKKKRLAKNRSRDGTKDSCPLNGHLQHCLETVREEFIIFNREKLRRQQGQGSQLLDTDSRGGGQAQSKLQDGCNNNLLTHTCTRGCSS
Chain of UniProt P42681 (whole entry, looked up): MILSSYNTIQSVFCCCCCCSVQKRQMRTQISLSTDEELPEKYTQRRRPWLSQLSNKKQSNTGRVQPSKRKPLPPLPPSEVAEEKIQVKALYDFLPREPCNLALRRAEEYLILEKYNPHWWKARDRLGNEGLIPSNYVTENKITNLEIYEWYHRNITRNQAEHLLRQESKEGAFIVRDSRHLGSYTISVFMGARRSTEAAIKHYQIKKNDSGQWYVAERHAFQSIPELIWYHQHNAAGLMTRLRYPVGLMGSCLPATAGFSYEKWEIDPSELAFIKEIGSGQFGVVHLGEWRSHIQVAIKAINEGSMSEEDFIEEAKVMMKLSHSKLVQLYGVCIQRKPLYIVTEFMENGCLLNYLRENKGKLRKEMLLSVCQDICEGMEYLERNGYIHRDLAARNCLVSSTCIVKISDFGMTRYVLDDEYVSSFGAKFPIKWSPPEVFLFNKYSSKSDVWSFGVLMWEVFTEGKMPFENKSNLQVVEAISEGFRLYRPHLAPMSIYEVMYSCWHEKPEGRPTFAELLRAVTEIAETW
Chain of UniProt P28482 (whole entry, looked up): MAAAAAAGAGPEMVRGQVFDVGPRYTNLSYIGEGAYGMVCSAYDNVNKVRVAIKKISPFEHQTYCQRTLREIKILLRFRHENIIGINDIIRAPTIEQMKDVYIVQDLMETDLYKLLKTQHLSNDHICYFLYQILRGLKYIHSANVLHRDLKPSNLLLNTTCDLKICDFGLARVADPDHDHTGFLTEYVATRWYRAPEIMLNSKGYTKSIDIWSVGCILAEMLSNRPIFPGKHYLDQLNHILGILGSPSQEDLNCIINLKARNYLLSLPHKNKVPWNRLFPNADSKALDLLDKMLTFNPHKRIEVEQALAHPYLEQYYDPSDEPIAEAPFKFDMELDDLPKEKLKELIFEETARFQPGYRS
Chain of UniProt Q9BZL6 (whole entry, looked up): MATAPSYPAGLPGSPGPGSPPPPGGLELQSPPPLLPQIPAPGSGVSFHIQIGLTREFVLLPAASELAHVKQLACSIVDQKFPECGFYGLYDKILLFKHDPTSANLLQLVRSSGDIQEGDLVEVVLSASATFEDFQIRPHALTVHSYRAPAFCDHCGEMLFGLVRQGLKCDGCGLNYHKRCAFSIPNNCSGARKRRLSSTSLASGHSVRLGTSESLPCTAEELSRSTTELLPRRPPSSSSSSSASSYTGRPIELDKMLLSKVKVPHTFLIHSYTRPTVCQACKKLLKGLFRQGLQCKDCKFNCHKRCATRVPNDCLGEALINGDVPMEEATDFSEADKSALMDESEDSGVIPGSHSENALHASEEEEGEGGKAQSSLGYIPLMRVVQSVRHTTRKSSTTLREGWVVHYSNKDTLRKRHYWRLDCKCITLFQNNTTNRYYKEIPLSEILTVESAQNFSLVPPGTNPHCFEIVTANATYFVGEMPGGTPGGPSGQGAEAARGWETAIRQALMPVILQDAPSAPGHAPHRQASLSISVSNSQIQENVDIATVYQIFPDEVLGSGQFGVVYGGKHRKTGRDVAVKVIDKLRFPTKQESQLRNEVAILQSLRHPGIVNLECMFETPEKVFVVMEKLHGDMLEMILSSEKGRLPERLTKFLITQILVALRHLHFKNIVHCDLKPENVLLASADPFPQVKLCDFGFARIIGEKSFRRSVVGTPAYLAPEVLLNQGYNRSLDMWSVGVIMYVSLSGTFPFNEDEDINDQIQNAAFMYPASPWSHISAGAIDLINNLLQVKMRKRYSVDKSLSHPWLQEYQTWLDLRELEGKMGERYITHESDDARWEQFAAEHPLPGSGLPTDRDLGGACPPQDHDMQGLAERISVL
Chain of UniProt Q06418 (whole entry, looked up): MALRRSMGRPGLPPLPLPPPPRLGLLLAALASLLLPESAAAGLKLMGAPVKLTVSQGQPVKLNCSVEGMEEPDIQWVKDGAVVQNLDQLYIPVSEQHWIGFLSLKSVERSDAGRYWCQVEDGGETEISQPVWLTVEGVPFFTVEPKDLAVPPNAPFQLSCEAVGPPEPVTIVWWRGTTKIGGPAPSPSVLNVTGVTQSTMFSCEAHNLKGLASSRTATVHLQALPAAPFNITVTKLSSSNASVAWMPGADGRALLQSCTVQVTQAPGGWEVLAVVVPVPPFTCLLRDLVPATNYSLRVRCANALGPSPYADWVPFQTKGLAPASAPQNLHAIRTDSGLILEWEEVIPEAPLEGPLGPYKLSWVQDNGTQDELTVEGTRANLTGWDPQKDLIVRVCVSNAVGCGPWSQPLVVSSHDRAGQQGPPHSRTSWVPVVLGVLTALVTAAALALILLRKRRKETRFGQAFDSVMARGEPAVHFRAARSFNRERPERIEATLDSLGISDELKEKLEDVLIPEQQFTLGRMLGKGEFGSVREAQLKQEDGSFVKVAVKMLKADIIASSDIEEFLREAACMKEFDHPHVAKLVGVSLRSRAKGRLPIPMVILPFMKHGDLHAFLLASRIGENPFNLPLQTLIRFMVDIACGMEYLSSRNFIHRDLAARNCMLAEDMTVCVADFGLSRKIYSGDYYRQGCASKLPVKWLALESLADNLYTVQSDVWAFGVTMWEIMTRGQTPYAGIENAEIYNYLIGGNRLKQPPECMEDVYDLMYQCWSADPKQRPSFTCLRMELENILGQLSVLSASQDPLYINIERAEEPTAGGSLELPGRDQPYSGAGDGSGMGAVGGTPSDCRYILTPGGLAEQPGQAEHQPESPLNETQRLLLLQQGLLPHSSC
Chain of UniProt Q16832 (whole entry, looked up): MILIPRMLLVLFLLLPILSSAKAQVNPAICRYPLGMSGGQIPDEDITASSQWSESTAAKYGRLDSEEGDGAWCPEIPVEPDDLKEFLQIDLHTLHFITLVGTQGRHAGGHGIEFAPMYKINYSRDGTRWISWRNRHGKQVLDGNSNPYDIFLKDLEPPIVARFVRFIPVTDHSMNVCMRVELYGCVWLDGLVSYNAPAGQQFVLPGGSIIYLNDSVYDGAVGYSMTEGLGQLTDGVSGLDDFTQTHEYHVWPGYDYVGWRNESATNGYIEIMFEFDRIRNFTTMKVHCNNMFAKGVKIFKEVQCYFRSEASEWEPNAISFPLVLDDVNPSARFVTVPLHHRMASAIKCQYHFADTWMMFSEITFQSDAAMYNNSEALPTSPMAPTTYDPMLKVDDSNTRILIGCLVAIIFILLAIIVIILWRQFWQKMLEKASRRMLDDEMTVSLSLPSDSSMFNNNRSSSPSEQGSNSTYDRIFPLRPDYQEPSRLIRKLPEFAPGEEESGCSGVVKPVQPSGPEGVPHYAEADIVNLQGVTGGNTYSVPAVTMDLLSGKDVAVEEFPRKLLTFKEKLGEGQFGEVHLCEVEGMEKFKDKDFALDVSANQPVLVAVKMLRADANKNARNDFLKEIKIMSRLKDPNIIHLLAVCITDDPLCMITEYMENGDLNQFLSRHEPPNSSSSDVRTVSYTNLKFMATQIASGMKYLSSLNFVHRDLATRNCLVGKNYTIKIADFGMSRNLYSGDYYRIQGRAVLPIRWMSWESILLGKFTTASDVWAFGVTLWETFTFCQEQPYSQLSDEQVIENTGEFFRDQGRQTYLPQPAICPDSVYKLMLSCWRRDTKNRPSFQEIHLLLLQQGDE

Sample 1
SMILES: c1ccc(N2CCN(Cc3nc4ccccc4[nH]3)CC2)nc1
Method: competition with immobilised ligand
Concentration: 1 µM
target	test	remaining binding [%]
PAK5 (Homo sapiens, UniProt Q9P286)	cell-free assay	100
STK32B (Homo sapiens, UniProt Q9NY57)	binding	100
TYRO3 (Homo sapiens, UniProt Q06418)	cell-free assay	93
PRKD2 (Homo sapiens, UniProt Q9BZL6)	binding	91
DCLK3 (Homo sapiens, UniProt Q9C098)	binding	93
OXSR1 (Homo sapiens, UniProt O95747)	binding	100
TEK (Homo sapiens, UniProt Q02763)	cell-free assay	94

Sample 2
Structure (SMILES): CC(C)n1cnc(-c2ccc(F)cc2)c1-c1ncc(C(=O)Nc2ccc(N3CCN(C)CC3)cc2)[nH]1
Method: phase 2a trial
Host: idiopathic pulmonary fibrosis patients
conditions	patients with cough [%]
60 mg once daily, adverse event grade 4	0
30 mg once daily, adverse event grade 3	0
dose not given, adverse event grade 5, all dose arms pooled	0
60 mg once daily, adverse event grade 5	0

Sample 3
Cell line: mouse MPNST tumor cells
Method: high-content nuclear imaging
Measured: cell number
Concentration: 10 µM
Time: 12 h
Notes: mean of 2 replicates
Relative to: plate mean
Direction: higher = more cells
Compound	nuclei count [z-score]
O=C(COc1ccc(Cl)cc1)N1CCN(Cc2ccc3c(c2)OCO3)CC1	2.36
OCc1ccc(-c2nn(Cc3ccccc3)c3ccccc23)o1	2.41
CC(C)[C@H](CO)Nc1nc(Nc2cccc(Cl)c2)c2ncn(C(C)C)c2n1	-1.37
Cc1cc(F)c(Nc2ncnc3cc(OCc4ccccc4)ccc23)cc1O	3.34

Sample 4
Structure (SMILES): CC(=O)O/N=C1/C(c2c(O)[nH]c3cc(Br)ccc23)=Nc2ccccc21
Observed: enzyme activity
Action: inhibitor
Concentration: 0.5 µM
Relative to: control
target	remaining activity
TXK (Homo sapiens, UniProt P42681)	46.4%
MAPK1 (Homo sapiens, UniProt P28482)	87.9%
MAPK11 (Homo sapiens, UniProt Q15759)	83.4%
RPS6KA4 (Homo sapiens, UniProt O75676)	97.6%
CLK4 (Homo sapiens, UniProt Q9HAZ1)	94.1%
CAMK4 (Homo sapiens, UniProt Q16566)	86.1%
MINK1 (Homo sapiens, UniProt Q8N4C8)	76.1%
NEK3 (Homo sapiens, UniProt P51956)	130%
DDR2 (Homo sapiens, UniProt Q16832)	89.8%
CLK3 (Homo sapiens, UniProt P49761)	75.1%
PNCK (Homo sapiens, UniProt Q6P2M8)	96.3%
ROCK1 (Homo sapiens, UniProt Q13464)	94.6%
Cyclin-dependent kinase 1, with cyclin A (CDK1, Homo sapiens, UniProt P06493)	77.5%
